{"data": "Published values gathered from unrelated publications", "note": "Each line is one published result; not all experiments were run side by side. ± marks the error that the study gave."}
{"Compound": "CC(C)C[C@H](NC(=O)[C@H](CCCCN)NC(=O)OCC1c2ccccc2-c2ccccc21)C(=O)N[C@H](C(=O)N[C@@H](Cc1ccccc1)C(=O)N[C@@H](Cc1ccccc1)C(=O)N[C@@H](CCCCN)C(=O)NCC(=O)N[C@@H](Cc1ccccc1)C(=O)N[C@@H](C)C(=O)N[C@@H](Cc1c[nH]c2ccccc12)C(=O)N[C@@H](CC(N)=O)C(=O)N[C@H](C(=O)N[C@H]1CSSC[C@@H](C(=O)N[C@@H](Cc2c[nH]cn2)C(=O)N[C@@H](CCCNC(=N)N)C(=O)N[C@@H](CCCNC(=N)N)C(=O)N[C@@H](C)C(=O)N[C@@H](CC(N)=O)C(N)=O)NC(=O)[C@H](C(C)C)NC(=O)[C@H](CCCNC(=N)N)NC(=O)[C@H](C(C)C)NC(=O)CNC(=O)[C@H](CC(N)=O)NC(=O)[C@H](CCCNC(=N)N)NC(=O)[C@H](Cc2ccc(O)cc2)NC(=O)[C@H](C(C)C)NC1=O)C(C)C)C(C)C", "assay": "circular dichroism, measured: Random-coil", "system": "PBS", "setting": "80 µM, pH 7.4, together with: LTA 1 µM", "measurement": "secondary structure content", "result": "29.6%"}
{"Compound": "C[C@]1(CO)Cc2ncn(-c3ccc(C#N)c(Cl)c3)c2C(=O)O1", "system": "Japanese subjects", "setting": "80 mg single dose", "measurement": "drug-related orthostatic hypotension incidence", "result": "0%"}
{"Compound": "O[C@H]1CCCN[C@@H]1CCCn1cnc2c(Cl)c(Cl)ccc21", "system": "healthy humans, plasma", "setting": "oral, 150 mg, together with: pirfenidone 600 mg", "measurement": "terminal half-life", "result": "4.83 h"}
{"Compound": "CCCSc1ccc2nc(NC(=O)OC)[nH]c2c1", "system": "simulated gastric fluid", "setting": "24 h, pH 1.2, room temperature", "measurement": "equilibrium solubility", "result": "131 ± 24.2 µg/mL"}
{"Compound": "C#CC[C@H](NC(=O)[C@H](Cc1ccccc1)NC(=O)CCNC(=S)Nc1ccc2c(c1)C(=O)OC21c2ccc(O)cc2Oc2cc(O)ccc21)C(=O)N[C@@H](C)C(=O)N[C@@H](CC(C)C)C(=O)N[C@@H](CC(=O)O)C(=O)N[C@@H](Cc1c[nH]c2ccccc12)C(=O)N[C@@H](CO)C(=O)N[C@@H](Cc1c[nH]c2ccccc12)C(=O)N[C@@H](CC(C)C)C(=O)N[C@@H](CCC(N)=O)C(=O)N[C@H](C(=O)N[C@@H](CCC(=O)O)C(N)=O)[C@@H](C)O", "assay": "dynamic light scattering", "system": "PBS/DMSO", "setting": "5000 nM", "measurement": "hydrodynamic diameter", "result": "1250 ± 35 nm"}
{"Compound": "N[C@@H]1c2ccccc2OC12CCN(c1cnc3c(N4CCCc5ncccc54)n[nH]c3n1)CC2", "system": "advanced metastatic solid tumour patients", "setting": "oral, 150 mg once daily, cycle 1, 21 days", "measurement": "dose-limiting toxicity", "result": "75%"}
{"Compound": "CCCCCCCCCCCCCCCC(=O)N[C@@H](CCC(=O)NCCCC[C@H](NC(=O)[C@H](CC(=O)O)NC(=O)[C@H](CO)NC(=O)[C@@H](NC(=O)[C@H](Cc1ccccc1)NC(=O)[C@@H](NC(=O)CNC(=O)[C@H](CCC(N)=O)NC(=O)[C@H](CO)NC(=O)[C@@H](N)Cc1c[nH]cn1)[C@@H](C)O)[C@@H](C)O)C(=O)N[C@@H](CO)C(=O)N[C@@H](CCC(=O)O)C(=O)N[C@@H](Cc1ccc(O)cc1)C(=O)N[C@@H](CC(C)C)C(=O)N[C@@H](CC(=O)O)C(=O)N[C@@H](CO)C(=O)N[C@@H](CCC(=O)O)C(=O)N[C@@H](CCCNC(=N)N)C(=O)N[C@@H](C)C(=O)N[C@@H](CCCNC(=N)N)C(=O)N[C@@H](CC(=O)O)C(=O)N[C@@H](Cc1ccccc1)C(=O)N[C@H](C(=O)N[C@@H](C)C(=O)N[C@@H](Cc1c[nH]c2ccccc12)C(=O)N[C@@H](CC(C)C)C(=O)N[C@@H](CCC(=O)O)C(=O)N[C@@H](C)C(=O)NCC(=O)NCC(=O)O)C(C)C)C(=O)O", "assay": "measured: Vomiting", "system": "humans CrCl at least 90 mL/min", "setting": "subcutaneous, 100 µg single dose", "measurement": "treatment-related adverse events", "result": "37.5%"}
{"Compound": "Cc1c(C(=O)O)ccc2c3n(nc12)[C@@H]1[C@H](C3)N(CC2CC2)[C@@]2(C(=O)Nc3cc(Cl)ccc32)[C@H]1c1cccc(Cl)c1F", "system": "athymic nude mice, orthotopic brain tumour PDX, tumour", "setting": "1 mg/kg single, 24 h", "measurement": "tumour concentration", "result": "11 ± 4 nM"}
{"Compound": "O=C(Nc1ccccc1)C1CCN(C(=O)Oc2cccnc2)CC1", "assay": "adverse event reporting", "system": "healthy women", "setting": "oral, 20 mg, 7 days", "measurement": "subjects with Overall adverse event", "result": "85.7%"}
{"Compound": "CO[C@H]1C[C@@H]2CC[C@@H](C)[C@@](O)(O2)C(=O)C(=O)N2CCCC[C@H]2C(=O)O[C@H]([C@H](C)C[C@@H]2CC[C@@H](OC(=O)NCCOCCOCCOCCOCCOCCOCCOCCOCCC(=O)N3CCc4cc(Cn5nc(-c6ccc7oc(N)nc7c6)c6c(N)ncnc65)ccc4C3)[C@H](OC)C2)C[C@@H](O)[C@H](C)/C=C(\\C)[C@@H](O)[C@@H](OC)C(=O)[C@H](C)C[C@H](C)/C=C/C=C/C=C/1C", "system": "patients with advanced solid tumours", "setting": "intravenous, 1.6 mg/3 mg weekly, grade ≥3", "measurement": "incidence of Diarrhea TEAE", "result": "0%"}
{"Compound": "COc1cc2c(Oc3ccc4[nH]c(C)cc4c3F)ccnc2cc1OCC1(N)CC1", "system": "paediatric recurrent refractory sarcoma", "setting": "10 mg", "measurement": "grade 1 or 2 hand-foot syndrome", "result": "50%"}
{"Compound": "CC(C)c1nc(N(C)S(C)(=O)=O)nc(-c2ccc(F)cc2)c1/C=C/[C@@H](O)C[C@@H](O)CC(=O)O", "system": "healthy human subjects", "setting": "oral, dose not given, study CL-0537 safety set", "measurement": "incidence of skin disorders", "result": "0%"}
{"Compound": "CCS(=O)(=O)Nc1ccc(Oc2ccc(F)cc2F)c(-c2cn(C)c(=O)c3[nH]ccc23)c1", "assay": "serious septic shock", "system": "human, relapsed/refractory AML", "setting": "oral, dose not given", "measurement": "treatment-emergent adverse events", "result": "0%"}
{"Compound": "N=C(N)NCCC[C@@H](NC(=O)[C@@H](N)Cc1ccccc1)C(=O)N[C@@H](Cc1ccccc1)C(=O)N[C@@H](CCCCN)C(N)=O", "system": "early Huntington's disease patients, plasma", "setting": "subcutaneous, 15 mg daily, day 7, median", "measurement": "apparent volume of distribution", "result": "24.4 L"}
{"note": "Some of these lines once more:"}
{"Compound": "CO[C@H]1C[C@@H]2CC[C@@H](C)[C@@](O)(O2)C(=O)C(=O)N2CCCC[C@H]2C(=O)O[C@H]([C@H](C)C[C@@H]2CC[C@@H](OC(=O)NCCOCCOCCOCCOCCOCCOCCOCCOCCC(=O)N3CCc4cc(Cn5nc(-c6ccc7oc(N)nc7c6)c6c(N)ncnc65)ccc4C3)[C@H](OC)C2)C[C@@H](O)[C@H](C)/C=C(\\C)[C@@H](O)[C@@H](OC)C(=O)[C@H](C)C[C@H](C)/C=C/C=C/C=C/1C", "system": "patients with advanced solid tumours", "setting": "intravenous, 1.6 mg/3 mg weekly, grade ≥3", "measurement": "incidence of Diarrhea TEAE", "result": "0%"}
{"Compound": "COc1cc2c(Oc3ccc4[nH]c(C)cc4c3F)ccnc2cc1OCC1(N)CC1", "system": "paediatric recurrent refractory sarcoma", "setting": "10 mg", "measurement": "grade 1 or 2 hand-foot syndrome", "result": "50%"}
